Published values of several laboratories.
Protocols differ between the studies behind these lines.
Cell line: SW-620

CC(Cc1ccc(Cl)cc1)=C(c1ccc(Cl)cc1)c1ccc(OCCN(C)C)cc1
GI50 (cell growth or viability, SRB): 1670 nM

CC/C=C\C/C=C\C/C=C\C/C=C\C/C=C\C/C=C\CCC(=O)Nc1ccn(C2OC(CO)C(O)C2(F)F)c(=O)n1 (stereo not drawn)
GI50 (cell growth or viability, SRB): 75.9 nM

COc1cc(CNC(=O)C[C@H](C)CCC=C(C)C)ccc1OCc1cn(-c2ccc([N+](=O)[O-])cc2)nn1
growth percent (SRB; 10 µM, 48 h): 86.8%

CCC(=C(c1ccc(Cl)cc1)c1ccc(OCCCN(C)C)cc1)c1ccc(OC)cc1
GI50 (cell growth or viability, SRB): 1160 nM

C1=[N+]2CCCC[N+]3=Cc4ccc5[n]4[Au-]23[n]2c1ccc2-c1nc2ccccc2nc1-5.F[P-](F)(F)(F)(F)F
IC50 (cell growth): 1500 nM

COc1cc(CNC(=O)C[C@H](C)CCC=C(C)C)ccc1OCc1cn(-c2ccc(Br)cc2)nn1
growth percent (SRB; 10 µM, 48 h): 91.7%

COc1ccc2c(c1)/C(=N\Nc1nnc3n1N=C(c1ccccc1)CS3)C(=O)N2
inhibition (cell growth or viability, SRB; 10 µM): 21%

CCCCN(CCCC)CC(O)COc1c2ccoc2c(OC)c2oc(CC)cc(=O)c12 (stereo not drawn)
IL-6 secretion reduction (ELISA; IC50, 72 h; baseline: control): ~50%

COc1cc(CNC(=O)C[C@H](C)CCC=C(C)C)ccc1OCc1cn(-c2ccc(Cl)c(Cl)c2)nn1
growth percent (SRB; 10 µM, 48 h): 29.9%
